Measured values from different studies.
Compare with care: the assays were run in different laboratories. ± marks the error that the study gave.

With N=C(N)NCc1ccc(C(=O)NCCCC[C@H](NC(=O)CCCCCCC(=O)NCCCC[C@H](NC(=O)N[C@@H](CCC(=O)O)C(=O)O)C(=O)O)C(=O)O)cc1[211At] the tissue uptake was 2.86 ± 0.67 %ID/g (SCID mouse, PC-3 xenografts, stomach; 2 h).
COc1cc2ccnc(Cc3ccc(O[11CH3])c(OC)c3)c2cc1OC gave a tissue uptake of 0.312 ± 0.054 %ID/g (Sprague-Dawley rats, kidney; intravenous, 0.5 h).
For COc1cc2ncnc(Oc3cccc(N[11C](=O)Nc4cc(C(C)(C)C(F)(F)F)on4)c3)c2cc1OC, the tissue uptake was 2.63 ± 0.05 %ID/g (Balb/c nude mouse, female, A375 melanoma xenograft, muscle; 6.6 MBq, 60 min).
CN[C@](C)(C[18F])C(=O)O has a tissue uptake of 4.8 ± 0.8 %ID/g (SCID mouse MDA-MB-468 xenograft, kidney; 60 min post injection).
With N=C(N)NCc1ccc(C(=O)NCCCC[C@H](NC(=O)N[C@@H](CCC(=O)O)C(=O)O)C(=O)O)cc1[131I] the tissue uptake was 0.33 ± 0.07 %ID/g (SCID mouse, PC-3 xenografts, spleen; 21 h).
For O=C(c1ccc(F)cc1)C1CCN(C2Cc3c(cccc3OCC[18F])CC2O)CC1 (single isomer, unassigned; (-)), the tissue uptake was 0.738 ± 0.087 %ID/g (Sprague-Dawley rat, male, lung; intravenous, dose not given, 60 min).
With O=C(O)CC[C@H](NC(=O)O[C@@H](CCCCNC(=O)c1ccc([18F])cc1)C(=O)O)C(=O)O the tissue uptake was 12.5 ± 3.01 %ID/g (mouse, PC-3 PIP/flu xenografts, liver; 60 min).
CCNc1cc2[o+]c3cc(NCC)c(C)cc3c(-c3ccccc3C(=O)OCCOCC[18F])c2cc1C gave a tissue uptake of 0.82 ± 0.19 %ID/g (rat, lung; 120 min).
N=C(N)NCc1ccc(C(=O)NCCCC[C@H](NC(=O)N[C@@H](CCC(=O)O)C(=O)O)C(=O)O)cc1[211At] gave a tissue uptake of 17.1 ± 3.71 %ID/g (SCID mouse, PC-3 xenografts, spleen; 1 h).
C=Cc1cc(O)cc2nc(-c3ccc(O)c([76Br])c3)oc12 gave a tissue uptake of 0.26 ± 0.09 %ID/g (female C57BL/6 mouse, uterus; 1 h, low dose).

Repeated from above:
With N=C(N)NCc1ccc(C(=O)NCCCC[C@H](NC(=O)N[C@@H](CCC(=O)O)C(=O)O)C(=O)O)cc1[131I] the tissue uptake was 0.33 ± 0.07 %ID/g (SCID mouse, PC-3 xenografts, spleen; 21 h).
